Published values of several laboratories.
Protocols differ between the studies behind these lines.
lysine riboswitch RNA: lysine riboswitch RNA, 2-aminopurine at 17 (Bacillus subtilis)
lasR: Transcriptional activator protein LasR (lasR, Pseudomonas aeruginosa, UniProt P25084)
Chain of UniProt P25084 (whole entry, looked up): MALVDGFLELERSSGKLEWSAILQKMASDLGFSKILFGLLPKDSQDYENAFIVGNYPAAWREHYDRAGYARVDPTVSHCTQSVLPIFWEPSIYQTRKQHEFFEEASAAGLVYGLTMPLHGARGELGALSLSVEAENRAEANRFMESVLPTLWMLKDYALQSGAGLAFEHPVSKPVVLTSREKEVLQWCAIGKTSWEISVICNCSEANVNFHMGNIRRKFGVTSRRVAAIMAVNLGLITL
T1: riboswitch RNA SAM-I metF-H2 A87G/U88C (Thermoanaerobacter tengcongensis); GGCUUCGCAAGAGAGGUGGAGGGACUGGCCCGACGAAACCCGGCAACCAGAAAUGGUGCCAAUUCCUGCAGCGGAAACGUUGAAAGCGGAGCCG
T2: aptamer DNA C14T; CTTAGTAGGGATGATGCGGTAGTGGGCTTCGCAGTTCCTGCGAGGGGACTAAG
T3: aptamer DNA vancomycin aptamer variant; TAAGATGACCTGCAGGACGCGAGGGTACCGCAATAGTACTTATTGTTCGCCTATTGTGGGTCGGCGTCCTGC
T4: lysine riboswitch RNA, 2-aminopurine at 17 (Bacillus subtilis); chain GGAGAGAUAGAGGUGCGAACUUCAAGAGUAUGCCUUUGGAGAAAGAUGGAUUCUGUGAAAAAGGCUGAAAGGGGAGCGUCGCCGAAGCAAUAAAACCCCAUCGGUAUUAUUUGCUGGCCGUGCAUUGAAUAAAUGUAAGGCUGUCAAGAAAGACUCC; chain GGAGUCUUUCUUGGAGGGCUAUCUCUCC
T5: riboswitch RNA (Mesoplasma florum); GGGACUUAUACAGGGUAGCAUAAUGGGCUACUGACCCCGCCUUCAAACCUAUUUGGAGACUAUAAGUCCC
T6: riboswitch RNA U39A (Bacillus); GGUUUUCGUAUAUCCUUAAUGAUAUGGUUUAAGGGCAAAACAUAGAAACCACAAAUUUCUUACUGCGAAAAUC
Chain of UniProt Q6P2M8 (whole entry, looked up): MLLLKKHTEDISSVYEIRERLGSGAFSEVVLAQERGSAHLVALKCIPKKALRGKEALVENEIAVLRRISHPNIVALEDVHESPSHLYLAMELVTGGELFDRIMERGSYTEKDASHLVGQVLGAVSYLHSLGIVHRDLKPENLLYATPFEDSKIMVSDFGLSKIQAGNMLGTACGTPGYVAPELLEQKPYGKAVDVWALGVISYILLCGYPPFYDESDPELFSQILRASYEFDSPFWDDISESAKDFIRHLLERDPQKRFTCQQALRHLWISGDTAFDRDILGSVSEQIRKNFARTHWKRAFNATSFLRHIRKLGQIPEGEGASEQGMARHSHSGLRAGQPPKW

C[S+](CC[C@H](N)C(=O)O)C[C@H]1O[C@@H](n2cnc3c(N)ncnc32)[C@H](O)[C@@H]1O (stereo partly shown): binding “binds” (T1, riboswitch RNA SAM-I metF-H2 A87G/U88C (Thermoanaerobacter tengcongensis); X-ray crystallography).
C[n+]1ccc(C=C2Sc3ccccc3N2CC(=O)NCCOCCOCCOCCNC(=O)CCCC[C@@H]2SC[C@@H]3NC(=O)N[C@@H]32)c2ccccc21 — result for binding: “binds” (T2, aptamer DNA C14T; X-ray crystallography).
CN[C@H](CC(C)C)C(=O)N[C@H]1C(=O)N[C@@H](CC(N)=O)C(=O)N[C@H]2C(=O)N[C@H]3C(=O)N[C@H](C(=O)N[C@H](C(=O)O)c4cc(O)cc(O)c4-c4cc3ccc4O)[C@H](O)c3ccc(c(Cl)c3)Oc3cc2cc(c3O[C@@H]2O[C@H](CO)[C@@H](O)[C@H](O)[C@H]2O[C@H]2C[C@](C)(N)[C@H](O)[C@H](C)O2)Oc2ccc(cc2Cl)[C@H]1O: binding “binds” (T3, aptamer DNA vancomycin aptamer variant; competitor, fluorescence; pH 7.4, MgCl2 10 mM).
For NCCCC[C@H](N)C(=O)NCC(=O)NCC(=O)O, binding read “no binding” (T4, lysine riboswitch RNA, 2-aminopurine at 17 (Bacillus subtilis); 2-aminopurine fluorescence titration; pH 8.0).
Under binding, N[C@@H](Cc1c[nH]cn1)C(=O)O is recorded as “no binding” (T5, riboswitch RNA (Mesoplasma florum); NMR).
Cn1cc(-c2ccc(-c3cncc(Cl)c3N3CCC4(CCNC4=O)CC3)cc2)cn1 — result for “fold change in expression”: -1.85 (COLO 205; microarray, refers to: E2F1; concentration not given, 4 h; reference: untreated cells).
Nc1nc2c(ncn2[C@H]2C[C@H](O)[C@@H](CO)O2)c(=O)[nH]1: binding “no binding” (T6, riboswitch RNA U39A (Bacillus); ITC; KCl 50 mM).
The binding of COc1cc(C#CC(=O)c2ccccc2)ccc1O is reported as 54% (lasR; receptor binding; concentration not given, 1.5 h, added: OdDHL at 1:1 ratio; reference: control).
For OC[C@H]1O[C@@H](O[C@H]2[C@H](O)[C@@H](O)[C@H](O)O[C@@H]2CO)[C@H](O)[C@@H](O)[C@H]1O, “log2 fold change” read -0.0706 (binding, MIDAS equilibrium dialysis LC-MS; A2AR-BRIL thermostabilized; concentration not given; reference: no-protein control).
For C[C@@H](O)[C@H](N)C(=O)O, binding read “no binding” (T4, lysine riboswitch RNA, 2-aminopurine at 17 (Bacillus subtilis); 2-aminopurine fluorescence titration; pH 8.0, no fluorescence change).
O=C(C#Cc1ccc(F)c(F)c1)c1ccccc1Cl has a binding of 65% (lasR; receptor binding; concentration not given, 1.5 h, added: OdDHL at 1:1 ratio; reference: control).
C1=C/COCc2cc(ccc2OCCN2CCCC2)Nc2nccc(n2)-c2cccc(c2)COC/1 has a binding of 34% (PNCK (Homo sapiens, UniProt Q6P2M8); concentration not given, kinase construct CAMK1B; reference: control).
With COc1cccc(C(=O)C#Cc2ccc(O)c(OC)c2)c1 the binding was 80% (lasR; receptor binding; concentration not given, 1.5 h, added: OdDHL at 1:1 ratio; reference: control).
COc1ccc2[nH]cc(CCNC(C)=O)c2c1 — result for “log2 fold change”: 0.116 (binding, MIDAS equilibrium dialysis LC-MS; A2AR-BRIL thermostabilized; concentration not given; reference: no-protein control).
The binding of COc1cccc(C(=O)C#Cc2ccc(F)c(F)c2)c1 is reported as 71% (lasR; receptor binding; concentration not given, 1.5 h, added: OdDHL at 1:1 ratio; reference: control).
N[C@@H](CCCCNC(=O)CCCC[C@@H]1SC[C@@H]2NC(=O)N[C@@H]21)C(=O)O: binding “no binding” (T4, lysine riboswitch RNA, 2-aminopurine at 17 (Bacillus subtilis); 2-aminopurine fluorescence titration; pH 8.0).
